Assay results from different studies.
Numbered parts are unrelated; each lists some results of a single study. Substitutions count along the parent as printed.
UniProt P10721, sequence (whole entry, unmodified, looked up): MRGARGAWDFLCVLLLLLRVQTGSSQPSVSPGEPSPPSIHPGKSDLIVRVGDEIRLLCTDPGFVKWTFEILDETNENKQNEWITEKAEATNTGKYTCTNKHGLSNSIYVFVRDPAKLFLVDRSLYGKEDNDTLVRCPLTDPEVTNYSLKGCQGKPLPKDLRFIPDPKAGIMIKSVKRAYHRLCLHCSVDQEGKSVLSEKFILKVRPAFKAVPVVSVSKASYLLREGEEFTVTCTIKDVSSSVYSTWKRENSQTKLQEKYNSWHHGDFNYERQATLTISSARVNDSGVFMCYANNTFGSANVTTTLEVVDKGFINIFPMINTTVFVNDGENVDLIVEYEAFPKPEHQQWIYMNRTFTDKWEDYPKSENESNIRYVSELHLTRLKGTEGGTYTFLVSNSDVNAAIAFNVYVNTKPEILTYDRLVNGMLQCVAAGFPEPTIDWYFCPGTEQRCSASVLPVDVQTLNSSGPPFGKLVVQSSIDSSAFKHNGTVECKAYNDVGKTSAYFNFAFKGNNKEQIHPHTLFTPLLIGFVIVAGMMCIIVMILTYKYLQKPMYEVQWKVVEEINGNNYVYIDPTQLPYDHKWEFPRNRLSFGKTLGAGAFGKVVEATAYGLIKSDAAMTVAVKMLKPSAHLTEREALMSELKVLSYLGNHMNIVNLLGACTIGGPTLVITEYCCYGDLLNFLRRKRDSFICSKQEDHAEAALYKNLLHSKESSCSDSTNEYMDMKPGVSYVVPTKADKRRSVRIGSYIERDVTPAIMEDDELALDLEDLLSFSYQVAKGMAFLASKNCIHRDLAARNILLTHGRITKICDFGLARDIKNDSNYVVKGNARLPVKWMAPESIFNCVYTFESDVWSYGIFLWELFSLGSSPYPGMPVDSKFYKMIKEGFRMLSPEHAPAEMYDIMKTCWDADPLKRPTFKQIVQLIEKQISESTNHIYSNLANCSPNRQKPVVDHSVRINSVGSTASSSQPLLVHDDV
UniProt Q9HAZ1, sequence (whole entry, looked up): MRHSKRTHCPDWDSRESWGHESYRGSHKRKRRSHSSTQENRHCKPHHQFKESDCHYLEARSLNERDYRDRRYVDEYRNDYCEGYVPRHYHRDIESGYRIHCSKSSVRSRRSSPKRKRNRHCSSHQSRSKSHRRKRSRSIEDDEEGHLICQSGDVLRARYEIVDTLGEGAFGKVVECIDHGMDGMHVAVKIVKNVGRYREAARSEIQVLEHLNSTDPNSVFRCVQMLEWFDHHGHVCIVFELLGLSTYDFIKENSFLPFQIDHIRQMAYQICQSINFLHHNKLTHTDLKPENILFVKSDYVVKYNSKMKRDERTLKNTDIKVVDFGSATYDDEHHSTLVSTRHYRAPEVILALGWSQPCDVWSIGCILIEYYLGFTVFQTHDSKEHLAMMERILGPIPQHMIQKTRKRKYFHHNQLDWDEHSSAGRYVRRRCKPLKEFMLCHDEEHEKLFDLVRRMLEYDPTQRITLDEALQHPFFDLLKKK
UniProt Q9NRM7, sequence (whole entry, looked up): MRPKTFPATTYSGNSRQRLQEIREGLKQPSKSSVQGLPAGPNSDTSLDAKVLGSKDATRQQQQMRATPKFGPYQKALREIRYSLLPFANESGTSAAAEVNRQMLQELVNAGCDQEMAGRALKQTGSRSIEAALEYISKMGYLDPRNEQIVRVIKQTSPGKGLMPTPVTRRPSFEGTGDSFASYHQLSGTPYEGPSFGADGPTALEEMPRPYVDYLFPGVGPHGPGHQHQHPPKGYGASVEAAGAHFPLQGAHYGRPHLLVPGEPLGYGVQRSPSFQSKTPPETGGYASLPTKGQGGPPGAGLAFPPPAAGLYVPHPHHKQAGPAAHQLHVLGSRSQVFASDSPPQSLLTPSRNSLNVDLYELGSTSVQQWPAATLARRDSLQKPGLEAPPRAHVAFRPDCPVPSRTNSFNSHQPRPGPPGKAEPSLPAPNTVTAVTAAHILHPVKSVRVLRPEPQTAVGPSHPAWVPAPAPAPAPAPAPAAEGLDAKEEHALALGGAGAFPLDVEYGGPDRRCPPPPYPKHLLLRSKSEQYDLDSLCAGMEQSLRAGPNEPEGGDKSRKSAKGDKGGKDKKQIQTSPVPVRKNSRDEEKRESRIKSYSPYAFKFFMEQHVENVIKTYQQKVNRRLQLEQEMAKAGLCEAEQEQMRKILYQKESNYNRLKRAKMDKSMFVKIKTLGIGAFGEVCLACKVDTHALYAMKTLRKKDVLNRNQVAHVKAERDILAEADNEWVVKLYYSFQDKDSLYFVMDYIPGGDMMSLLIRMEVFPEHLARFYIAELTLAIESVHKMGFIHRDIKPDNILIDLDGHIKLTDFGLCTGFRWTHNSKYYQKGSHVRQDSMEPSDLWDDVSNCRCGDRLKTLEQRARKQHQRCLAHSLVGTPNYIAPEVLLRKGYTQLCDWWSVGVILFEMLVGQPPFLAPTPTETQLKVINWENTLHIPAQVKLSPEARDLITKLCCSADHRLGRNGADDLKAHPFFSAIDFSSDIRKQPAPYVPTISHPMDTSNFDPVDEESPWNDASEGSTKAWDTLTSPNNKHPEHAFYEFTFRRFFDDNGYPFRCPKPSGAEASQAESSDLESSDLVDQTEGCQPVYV
UniProt Q16620, sequence (whole entry, looked up): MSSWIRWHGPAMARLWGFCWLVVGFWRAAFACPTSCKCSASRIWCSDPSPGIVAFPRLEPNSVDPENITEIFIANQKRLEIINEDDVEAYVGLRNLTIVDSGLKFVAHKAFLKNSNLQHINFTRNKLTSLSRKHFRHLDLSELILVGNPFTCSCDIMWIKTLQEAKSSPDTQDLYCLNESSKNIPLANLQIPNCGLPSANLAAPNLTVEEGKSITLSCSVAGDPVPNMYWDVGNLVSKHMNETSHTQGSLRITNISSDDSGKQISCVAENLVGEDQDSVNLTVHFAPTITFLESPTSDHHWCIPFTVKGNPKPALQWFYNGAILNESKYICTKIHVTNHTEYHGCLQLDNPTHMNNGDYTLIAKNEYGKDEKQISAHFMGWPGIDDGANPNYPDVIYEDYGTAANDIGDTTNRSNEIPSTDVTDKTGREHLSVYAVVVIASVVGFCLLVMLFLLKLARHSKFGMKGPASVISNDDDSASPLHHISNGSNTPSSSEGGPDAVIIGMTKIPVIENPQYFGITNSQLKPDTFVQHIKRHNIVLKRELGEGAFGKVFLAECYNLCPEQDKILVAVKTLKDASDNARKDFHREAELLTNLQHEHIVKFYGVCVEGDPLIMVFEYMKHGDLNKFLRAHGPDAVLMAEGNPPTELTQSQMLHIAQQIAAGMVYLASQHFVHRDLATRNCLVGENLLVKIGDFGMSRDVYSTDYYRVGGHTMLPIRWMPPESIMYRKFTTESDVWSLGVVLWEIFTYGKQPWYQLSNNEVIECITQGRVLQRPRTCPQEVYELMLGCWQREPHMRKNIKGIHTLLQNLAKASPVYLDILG

Block 1
SMILES: COc1ccc2cc(OCC3(C(=O)O)CN(C(=O)c4ccc(F)cc4)C3)ccc2c1
Read-out: cell-free assay
Method: competition with immobilised ligand
Tested at: 1 µM
For BDNF/NT-3 growth factors receptor (NTRK2, Homo sapiens, UniProt Q16620): remaining binding read 100%.
Mast/stem cell growth factor receptor Kit (KIT, Homo sapiens, UniProt P10721, D816V) — remaining binding: 100%.
The remaining binding was 100% (Dual specificity protein kinase CLK4 (CLK4, Homo sapiens, UniProt Q9HAZ1)).
For Serine/threonine-protein kinase LATS2 (LATS2, Homo sapiens, UniProt Q9NRM7): remaining binding read 90%.

Block 2
Target: RNA binding protein fox-1 homolog 2, RRM domain, GST-SBP tag (RBFOX2, Homo sapiens, UniProt O43251-10, residues 100-194)
Method: RNA Bind-n-Seq
Form: RNA
Medium: in vitro
Tested at: 365 nM
Setting: natural RNA segment, single round, ends assumed
Reference: no-protein control
Reading: higher = stronger binding
All sequences stand within: GGGAGUUCUACAGUCCGACGAUC … UGGAAUUCUCGGGUGCCAA
Residues (chain): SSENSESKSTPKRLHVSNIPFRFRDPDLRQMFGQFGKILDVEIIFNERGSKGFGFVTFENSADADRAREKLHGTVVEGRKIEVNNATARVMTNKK
`CUUGUGCUAGGAACACACCCUGCCCUCACUGCCCCACCUCCUGGGGCCCCACCGCCAUCGUCAGUCAAAUCAGUGCACCUCUCAAUCUGCCUCGCAGUGACUUCGCAGCA`: “RBNS enrichment (R)” 0.697.
Under “RBNS enrichment (R)”, `GGGGCAAAAUGCUGCCAGUCUCUUUGCUAAAACAUAACAAGAGUCACCUUUACUCCAGUUCCCAACAAGUUCCUCAUCUUCAUCUGAGGCCACCUCAGCCUGGACUUUGU` is recorded as 0.343.
For `UUGCCUGUUUCCACUUACCAGGAAAUUCCUUCAGAACUAGAUUAGCAUUGCCCUGCCUGUCUGAAAGGACAGUUUACCUAAUGGUGCCAGCCUCCUUUUGCUUUGGCAAG`, “RBNS enrichment (R)” read 0.333.
`UCCUAAGGCUCCCUCCCAGGCAAGUGCCCACCAGCAAGUUCACCACAGAGCCUGAAGCCCACACUCCGGAAAUGUCUCCUUCCAGAGAAAUGUUGGAGCCGAUCCAGGGU`: “RBNS enrichment (R)” 0.636.
Under “RBNS enrichment (R)”, `CAAGUGUUAUAAAAAAAAAGAAAAAGAACAAAGAAACCCUUUAUUUCAUUAAAUGAUUUUUUCUGGUGGUUGUCAAGAAACAAAAGACCAAAAGAGCCUUUUUGUCUUUC` is recorded as 0.588.
Under “RBNS enrichment (R)”, `CAGCGAGAGCAUGUCCAUCUGUUGGACAGCACUAUUCUAGAGAACUAAACUGGCUUAACGAGUCACAGCCUCAGCUGUGCUGGGACGACCCUUGUCUCCCUGGGUAGGGG` is recorded as 0.434.
`CCAUCUUUCCCUCAAGUGACCGUAUCUAGUGACAGGAAGGGAGAACCCUACAGUAGAUCCCUCUGCUUGGGUUUCAACUGGAGAUAGUGCCUUCCCCUGAUAACCAUUUU`: “RBNS enrichment (R)” 0.279.
For `ACCCUAGCGGUCUUCAGACAUUAAGUUCACGUCAUCCACUGAAAGGAAGGGUCCUUGCGUUGACAGCGUGUGGCUUUGGAGUCCGUUUAUGGAAGCACUCUACAAUGAAC`, “RBNS enrichment (R)” read 0.355.

Block 3
Target: CREBRF, bZIP domain (human)
Method: DHFR protein complementation
Medium: yeast
Setting: single substitutions, most at no-binding floor
Reference: wild-type JUN-FOS pair
Reading: higher = stronger binding
Starting sequence: JUN, bZIP domain (human); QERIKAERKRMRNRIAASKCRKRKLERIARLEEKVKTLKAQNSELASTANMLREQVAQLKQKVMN; partner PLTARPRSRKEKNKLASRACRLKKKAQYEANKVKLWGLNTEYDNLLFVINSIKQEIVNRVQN
For `S47D`, the binding fitness was -1.54 natural log.
`A46S` has a binding fitness of -1.46 natural log.
For `I28A`, the binding fitness was -1.49 natural log.
`M51E` has a binding fitness of -1.52 natural log.
With `L38I` the binding fitness was -1.6 natural log.
With `Q41S` the binding fitness was -1.43 natural log.
`Q55I` gave a binding fitness of -1.56 natural log.
With `I28C` the binding fitness was -1.4 natural log.

Single results of other studies
With `CCC[C@H]1NC(=O)CSC[C@@H](C(=O)OCC)N(C)C(=O)[C@H](CC(C)C)NC(=O)[C@H](C)N(C)C(=O)[C@@H](CC(C)C)NC(=O)[C@H](C)N(C)C(=O)[C@H]2CCCN2C(=O)[C@@H](CC(C)C)NC(=O)CN(CCC)C1=O` the logD was 1.51 (hydrocarbon/water).
